Experimental data of several laboratories.
Lines come from different studies, so protocols differ. Numbers after ± are the reported error.

SMILES	tested on	test	test system	setting	scale	measurement	result
COC[C@@H](CC(C)C)NC(=O)c1ccc(C)c(C)c1			Hsd:ICR (CD-1) mouse, female, bone marrow	oral, 2000 mg/kg, 24 h		micronucleated PCE per 1000 PCE	0.5
O=S(=O)(Nc1ccccc1)c1ccc(NC(=S)Nc2ccccc2)cc1			male mouse, blood	oral, 20 mg/kg daily, 14 days		chloride level	109 mmol/L
COc1cc2c(Oc3ccc4[nH]c(C)cc4c3F)ccnc2cc1OCC1(N)CC1			paediatric refractory sarcoma patients	8 mg		grade 3 T-wave abnormality	0%
Cn1nc(NS(C)(=O)=O)c2c(Cl)ccc(-n3c([C@H](Cc4cc(F)cc(F)c4)NC(=O)Cn4nc(C(F)F)c5c4C(F)(F)[C@@H]4C[C@H]54)nc4nc(OCCC(F)(F)F)ccc4c3=O)c21			human	oral, dose not given, powder in bottle single doses		participants, with AEs, drug-related	7%
COc1ccc2nc3cc(Cl)ccc3c(Nc3cc(CN4CCCC4)c(O)c(CN4CCCC4)c3)c2n1			mouse, blood	intraperitoneal, 28 mg/kg		haemoglobin	166 g/L
C[C@@H]1OC(=O)NN=C1c1ccc(-c2ccc(F)cc2)c(C(F)(F)F)c1		phase I trial, refers to: abdominal distension all grades	human patients	20 mg loading then 1 mg daily		patients with adverse event	50%
Cc1cc(OCC(O)CN2CCN(c3cccc(Cl)c3)CC2)ccc1Cl (centres unmarked)	Vero-E6	CellTiter-Glo ATP		72 h, first round 5-point	reference: DMSO 0%, hyamine -100%, more negative, more toxic	maximum response	-6.69%
CC(C)C[C@H](NC(=O)[C@H](CCCCN)NC(=O)OCC1c2ccccc2-c2ccccc21)C(=O)N[C@H](C(=O)N[C@@H](Cc1ccccc1)C(=O)N[C@@H](Cc1ccccc1)C(=O)N[C@@H](CCCCN)C(=O)NCC(=O)N[C@@H](Cc1ccccc1)C(=O)N[C@@H](C)C(=O)N[C@@H](Cc1c[nH]c2ccccc12)C(=O)N[C@@H](CC(N)=O)C(=O)N[C@H](C(=O)N[C@H]1CSSC[C@@H](C(=O)N[C@@H](Cc2c[nH]cn2)C(=O)N[C@@H](CCCNC(=N)N)C(=O)N[C@@H](CCCNC(=N)N)C(=O)N[C@@H](C)C(=O)N[C@@H](CC(N)=O)C(N)=O)NC(=O)[C@H](C(C)C)NC(=O)[C@H](CCCNC(=N)N)NC(=O)[C@H](C(C)C)NC(=O)CNC(=O)[C@H](CC(N)=O)NC(=O)[C@H](CCCNC(=N)N)NC(=O)[C@H](Cc2ccc(O)cc2)NC(=O)[C@H](C(C)C)NC1=O)C(C)C)C(C)C			ICR mouse, blood	intramammary, 5 mg/kg, day 5, 3 d dosing		calcium	1.37 ± 0.05 mmol/L
CN(C)C(=O)c1cc2cnc(Nc3ccc(N4CCNCC4)cn3)nc2n1C1CCCC1		refers to: Hepatobiliary toxicity, AESI	human, HR+/HER2− advanced breast cancer	oral, dose not given, grade 3, CTCAE v4.03		patients with adverse event	11.3%
CCc1ccc(CC/C=C/c2ccc3c(c2)C(=O)CC3)cc1			Sprague-Dawley rat, male	oral, 30 mg/kg/day, 14 days		CK serum activity	460 U/L
CC(Nc1nc(N2CCNCC2C)nc2ccccc12)c1ccccc1 (centres unmarked)	Vero-E6	CellTiter-Glo ATP		72 h, retest 8-point duplicates	reference: DMSO 0%, hyamine -100%, more negative, more toxic	maximum response	-10.1%
CC(=O)c1c(C)c2cnc(Nc3ccc(C4CCN(CCS(C)(=O)=O)CC4)cn3)nc2n(C2CCCC2)c1=O			human, plasma	oral, 75 mg, day 1 single dose		t1/2	8.72 h
O=C(O)CNCP(=O)(O)O		ultrafiltration	cow milk whey	200 nM nominal in whole milk		final permeate concentration	204 nM
Oc1ccc(CCc2cc(O)cc(O)c2)cc1			human, cerebrospinal fluid	dose not given, mean		CSF concentration	not detected
C[C@]1(CO)Cc2ncn(-c3ccc(C#N)c(Cl)c3)c2C(=O)O1			human, plasma	80 mg once daily, fasted		Cmax at steady state	2690 nM
C[C@@H](NC(=O)N1C(=O)[C@H](Cc2ccnc(N)c2)[C@H]1C(=O)O)C1CCCCC1			healthy adult Chinese volunteers	continuous intravenous infusion, 2.25 mg/kg/h, 5-day infusion, CTCAE 5.0 grading		incidence of injection site erythema swelling	0%
[O-][S+]1CCc2nc(N3CCC(c4ncc(Cl)cn4)CC3)nc(NC3(CO)CCC3)c21 (centres unmarked)		refers to: mean	idiopathic pulmonary fibrosis patients, blood	18 mg twice daily, at last treatment		fibrinogen	4.2 g/L
O=C1Nc2cc3[nH]nc(-c4ccncc4)c3cc2CN1Cc1ccccc1		refers to: QTc prolongation	patients with advanced solid tumours	intravenous, dose not given, both schedules pooled		patients with TEAE	15%
CCCCN1CCC(COC(=O)c2ccc(N)c(O[11CH3])c2)CC1		radioligand hydrolysis, esterase inhibitor	rhesus monkey plasma	concentration not given		inhibition	96 ± 3%
O=C(O)CCCOc1ccc(F)cc1-c1cc(-c2ccccc2C(F)(F)F)n(-c2ccccc2)n1		refers to: UN	Crl:CD(SD) rats, female, blood	iv, 25 µg/kg, 1 day		blood chemistry	13.8 ± 4.2 mg/dL
CC(C)C(=O)OC[C@H]1O[C@@H](n2ccc(NO)nc2=O)[C@H](O)[C@@H]1O			rat maternal placenta dialysate	250 ng/mL, 6 h, room temperature, high concentration, with: NHC 1000 ng/mL		bench-top stability	98.9 ± 3%

SMILES	tested on	test	test system	setting	scale	measurement	result
CO[C@H]1C[C@@H]2CC[C@@H](C)[C@@](O)(O2)C(=O)C(=O)N2CCCC[C@H]2C(=O)O[C@H]([C@H](C)C[C@@H]2CC[C@@H](OC(=O)NCCOCCOCCOCCOCCOCCOCCOCCOCCC(=O)N3CCc4cc(Cn5nc(-c6ccc7oc(N)nc7c6)c6c(N)ncnc65)ccc4C3)[C@H](OC)C2)C[C@@H](O)[C@H](C)/C=C(\C)[C@@H](O)[C@@H](OC)C(=O)[C@H](C)C[C@H](C)/C=C/C=C/C=C/1C			patients with advanced solid tumours	intravenous, 1.6 mg/3 mg weekly, grade ≥3		incidence of Rash TRAE	0%
COc1ncccc1-c1cnn2ccc(N3CCN(C(=O)OC(C)C)CC3)nc12			mouse, SNL model, plasma	oral, 30 mg/kg, 120 min		free drug concentration	140 nM
Cc1nc(Nc2ccc(CC(=O)O)cc2)nc(Nc2ccc(F)c(C(F)(F)F)c2)c1C			mice, chronic ethanol plus binge	intraperitoneal, 0.3 mg/kg daily, ethanol diet 4 weeks, dosed last two	reference: vehicle	body weight	no effect
COS(C)(=O)=O			female Hsd:ICR (CD-1) mouse, bone marrow	oral, 40 mg/kg/day, positive control		micronucleated PCE per 1000 PCE	12.1
O=C(c1ccc(F)c(F)c1Nc1ccc(I)cc1F)N1CC(O)([C@@H]2CCCCN2)C1			human patients	oral, dose not given, dose escalation, tablet		adverse events	100%
CC(C)(c1ccccc1)c1cc(-n2nc3ccccc3n2)c(O)c(C(C)(C)c2ccccc2)c1			human aged 16-21 years	concentration not given, sunscreen, 95th percentile		daily dermal exposure dose	1.34 ng/kg/day
CC1(C)C(C=C(Cl)Cl)C1C(=O)OC(C#N)c1ccc(F)c(Oc2ccccc2)c1 (centres unmarked)		refers to: CYP2C8	human, age 5 years, recombinant human CYP2C8	0.1 µM		enzyme contribution to clearance	0.64%
CN1CCN(S(=O)(=O)c2cc([N+](=O)[O-])ccc2N(CCOS(C)(=O)=O)CCOS(C)(=O)=O)CC1			naive female NSG mice, plasma	intraperitoneal, 25 mg/kg		Tmax	0.25 h
CC(C)[C@@H]1NC(=O)CNC(=O)[C@H](CC(N)=O)NC(=O)[C@H](CCCNC(=N)N)NC(=O)[C@H](Cc2ccc(O)cc2)NC(=O)[C@H](C(C)C)NC(=O)[C@@H](NC(=O)[C@@H](NC(=O)[C@H](CC(N)=O)NC(=O)[C@H](Cc2c[nH]c3ccccc23)NC(=O)[C@H](C)NC(=O)[C@H](Cc2ccccc2)NC(=O)CN)C(C)C)CSSC[C@@H](C(=O)N[C@@H](Cc2cnc[nH]2)C(=O)N[C@@H](CCCNC(=N)N)C(=O)N[C@@H](CCCNC(=N)N)C(=O)N[C@@H](C)C(=O)N[C@@H](CC(N)=O)C(N)=O)NC(=O)[C@H](C(C)C)NC(=O)[C@H](CCCNC(=N)N)NC1=O			ICR mice, serum	intraperitoneal, 5 mg/kg, day 5		albumin	34.4 ± 0.94 g/L
CCCCCCCCCCCCCCCC(=O)N[C@@H](CCC(=O)NCCCC[C@H](NC(=O)[C@H](CC(=O)O)NC(=O)[C@H](CO)NC(=O)[C@@H](NC(=O)[C@H](Cc1ccccc1)NC(=O)[C@@H](NC(=O)CNC(=O)[C@H](CCC(N)=O)NC(=O)[C@H](CO)NC(=O)[C@@H](N)Cc1c[nH]cn1)[C@@H](C)O)[C@@H](C)O)C(=O)N[C@@H](CO)C(=O)N[C@@H](CCC(=O)O)C(=O)N[C@@H](Cc1ccc(O)cc1)C(=O)N[C@@H](CC(C)C)C(=O)N[C@@H](CC(=O)O)C(=O)N[C@@H](CO)C(=O)N[C@@H](CCC(=O)O)C(=O)N[C@@H](CCCNC(=N)N)C(=O)N[C@@H](C)C(=O)N[C@@H](CCCNC(=N)N)C(=O)N[C@@H](CC(=O)O)C(=O)N[C@@H](Cc1ccccc1)C(=O)N[C@H](C(=O)N[C@@H](C)C(=O)N[C@@H](Cc1c[nH]c2ccccc12)C(=O)N[C@@H](CC(C)C)C(=O)N[C@@H](CCC(=O)O)C(=O)N[C@@H](C)C(=O)NCC(=O)NCC(=O)O)C(C)C)C(=O)O			human, CrCl ≥30 to <45 mL/min	sc, 100 µg single dose		injection site bruising	0%
Cc1ccc2cc(N3CCC4(O)C(=O)c5cc(C)c(C)cc5N=C34)ccc2n1 (centres unmarked)		functional observational battery	rat	concentration not given		physiological reflexes	no effect
CN1CC[C@@H](c2c(O)cc(O)c3c(=O)cc(-c4ccc(C(F)(F)F)cc4Cl)oc23)[C@@H]1CO		refers to: Fatigue	AML	oral, 150 mg, intermittent dosing		patients with adverse event	25%
COc1ccc(-c2c(-c3ccc(C#N)c(F)c3)nc(N3CCC(N)CC3)n(C)c2=O)cc1F		refers to: Leukopenia	human patients	oral, dose not given, grade 3 to 4, dose escalation, NG		treatment-related adverse event incidence	0%
C[C@@H]1NC(=O)[C@H](CCCCNC(=O)CO/N=C/C(=O)NCCCC[C@@H]2NC(=O)[C@@H](Cc3ccccc3)NC(=O)[C@H](CC(=O)O)NC(=O)CNC(=O)[C@H](CCCNC(=N)N)NC2=O)NC(=O)CNC(=O)[C@@H]2CCCN2C(=O)[C@H](CCCCNC(=O)CO/N=C/C(=O)NCCCC[C@@H]2NC(=O)[C@@H](Cc3ccccc3)NC(=O)[C@H](CC(=O)O)NC(=O)CNC(=O)[C@H](CCCNC(=N)N)NC2=O)NC(=O)[C@H](CCCCNC(=O)CN2CCCNCCNCCCNCC2)NC(=O)[C@H](CCCCNC(=O)CO/N=C/C(=O)NCCCC[C@@H]2NC(=O)[C@@H](Cc3ccccc3)NC(=O)[C@H](CC(=O)O)NC(=O)CNC(=O)[C@H](CCCNC(=N)N)NC2=O)NC(=O)CNC(=O)[C@@H]2CCCN2C(=O)[C@H](CCCCNC(=O)CO/N=C/C(=O)NCCCC[C@@H]2NC(=O)[C@@H](Cc3ccccc3)NC(=O)[C@H](CC(=O)O)NC(=O)CNC(=O)[C@H](CCCNC(=N)N)NC2=O)NC1=O [copper-64 labelled]			normal mice, blood	intravenous, 0.74 MBq, 3 h post-injection		tissue uptake	0.09 ± 0.01 %ID/g
COc1ccc(C[C@@H]2NC(=O)[C@H]([C@@H](C)O)NC(=O)[C@@H]3[C@@H]4CCN3C(=O)[C@@H]3Cc5cn(c6ccc(F)cc56)CCCCCCN(Cc5ccc(cc5)CCNC(=O)[C@]5(C)CCCN5C2=O)C(=O)CCC(=O)N[C@@H](C)C(=O)N[C@H](CNC(=O)CCCCC[N+](C)(C)C)C(=O)N[C@@H](Cc2cccc(c2)CNC(=O)CO4)C(=O)N3)cc1		refers to: bone contusion	human	Study-003 safety		adverse events	3.2%
Cn1ncc(-c2nc(N[C@H]3CC[C@H](N)CC3)ncc2Cl)c1CC1CC1		phase I dose escalation	human patients	dose not given, treatment-related adverse events		alanine aminotransferase increase incidence	12.9%
Cn1c(-c2ccc(C(N)=O)cc2F)nnc1C(C)(C)Oc1c(F)cc(Cl)cc1F			human	oral, 1 mg, single ascending dose		subjects with drug-related TEAE	16.7%
CCN1[C@@H](C(=O)NC23CCC(C(=O)O)(CC2)CC3)[C@H](c2cccc(Cl)c2F)[C@]2(C(=O)Nc3cc(Cl)ccc32)C12CCCCC2			patients with advanced solid tumours	oral, 200 mg		Myalgia incidence	0%
N=c1c2c(-c3ccccc3)c(-c3ccccc3)n(Cc3ccccc3)c2ncn1[C@H]1CC[C@H](O)CC1			Sprague-Dawley rat, male, plasma	2 mg/kg		AUC(0-t)/AUC(0-inf) ratio	> 95%
O=C(Nc1ccccc1)C1CCN(C(=O)Oc2cccnc2)CC1		adverse event reporting	healthy women	oral, 20 mg, 7 days		subjects with feeling drunk	7.1%

Some of these lines once more:
SMILES	tested on	test	test system	setting	scale	measurement	result
O=C(O)CCCOc1ccc(F)cc1-c1cc(-c2ccccc2C(F)(F)F)n(-c2ccccc2)n1		refers to: UN	Crl:CD(SD) rats, female, blood	iv, 25 µg/kg, 1 day		blood chemistry	13.8 ± 4.2 mg/dL
COC[C@@H](CC(C)C)NC(=O)c1ccc(C)c(C)c1			Hsd:ICR (CD-1) mouse, female, bone marrow	oral, 2000 mg/kg, 24 h		micronucleated PCE per 1000 PCE	0.5
O=C1Nc2cc3[nH]nc(-c4ccncc4)c3cc2CN1Cc1ccccc1		refers to: QTc prolongation	patients with advanced solid tumours	intravenous, dose not given, both schedules pooled		patients with TEAE	15%
O=C(O)CNCP(=O)(O)O		ultrafiltration	cow milk whey	200 nM nominal in whole milk		final permeate concentration	204 nM
N=c1c2c(-c3ccccc3)c(-c3ccccc3)n(Cc3ccccc3)c2ncn1[C@H]1CC[C@H](O)CC1			Sprague-Dawley rat, male, plasma	2 mg/kg		AUC(0-t)/AUC(0-inf) ratio	> 95%
CN1CCN(S(=O)(=O)c2cc([N+](=O)[O-])ccc2N(CCOS(C)(=O)=O)CCOS(C)(=O)=O)CC1			naive female NSG mice, plasma	intraperitoneal, 25 mg/kg		Tmax	0.25 h
